# Experimental data gathered from unrelated publications.
# Each line is one published result; not all experiments were run side by side. Values joined by “and” are separate records of one study, mostly repeats; a detail may differ. ± gives the spread as reported.
# Chain of UniProt Q13188 (whole entry, looked up): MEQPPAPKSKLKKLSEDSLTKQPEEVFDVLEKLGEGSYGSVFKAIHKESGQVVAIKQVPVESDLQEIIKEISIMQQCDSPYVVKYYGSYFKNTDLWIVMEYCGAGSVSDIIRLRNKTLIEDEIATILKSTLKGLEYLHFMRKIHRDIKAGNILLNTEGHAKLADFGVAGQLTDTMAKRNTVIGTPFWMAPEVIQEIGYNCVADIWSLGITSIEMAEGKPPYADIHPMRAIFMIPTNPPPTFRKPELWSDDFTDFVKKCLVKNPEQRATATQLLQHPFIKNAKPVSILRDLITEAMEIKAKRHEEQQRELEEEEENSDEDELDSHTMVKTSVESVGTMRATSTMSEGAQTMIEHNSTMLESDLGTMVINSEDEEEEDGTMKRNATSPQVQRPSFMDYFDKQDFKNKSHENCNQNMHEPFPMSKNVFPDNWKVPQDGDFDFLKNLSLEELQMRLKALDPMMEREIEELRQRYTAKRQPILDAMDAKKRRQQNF
SMILES,tested on,assay,system,conditions,how to read,quantity,result
CCCCCCCCCCCCCCCC(=O)N[C@@H](CCC(=O)NCCOCCOCCC(=O)NCCOCCOCCC(=O)NCCCC[C@H](NC(=O)[C@H](CC(=O)O)NC(=O)[C@H](CC(C)C)NC(=O)[C@H](Cc1ccc(O)cc1)NC(=O)[C@H](CCCCN)NC(=O)[C@H](CO)NC(=O)[C@H](Cc1ccc(O)cc1)NC(=O)[C@H](CC(=O)O)NC(=O)[C@H](CO)NC(=O)[C@@H](NC(=O)[C@H](Cc1ccccc1)NC(=O)[C@@H](NC(=O)CNC(=O)[C@H](CCC(N)=O)NC(=O)[C@@H](CO)NC(=O)[C@@H](N)Cc1c[nH]cn1)[C@@H](C)O)[C@@H](C)O)C(=O)N[C@@H](CCCNC(=N)N)C(=O)N[C@@H](CCCNC(=N)N)C(=O)N[C@@H](C)C(=O)N[C@@H](CCC(N)=O)C(=O)N[C@@H](CC(=O)O)C(=O)N[C@@H](Cc1ccccc1)C(=O)N[C@H](C(=O)N[C@@H](CCC(N)=O)C(=O)N[C@@H](Cc1c[nH]c2ccccc12)C(=O)N[C@@H](CC(C)C)C(=O)N[C@@H](CC(C)C)C(=O)N[C@@H](CC(N)=O)C(=O)N[C@H](C(=O)NCC(=O)NCC(=O)N1CCC[C@H]1C(=O)N[C@@H](CO)C(=O)N[C@@H](CO)C(=O)NCC(=O)N[C@@H](C)C(=O)N1CCC[C@H]1C(=O)N1CCC[C@H]1C(=O)N1CCC[C@H]1C(=O)N[C@@H](CO)C(N)=O)[C@@H](C)O)C(C)C)C(=O)O,,,"rhesus monkey, female","subcutaneous, 300 µg/kg once daily, 28 days",,creatinine,45.4 ± 4.7 µmol/L
CC(C)(C)C(=O)OCOP(=O)(OCOC(=O)C(C)(C)C)C1CCCN(O)C1=O (stereo not drawn),KM12,,,,,log LC50,> -4 log M
COc1ccccc1-c1n[nH]c2nc(NC3CCN(C(=O)Cc4ccc(F)cc4F)CC3)ncc12,,"bead binding, competition bead pull-down, refers to: LINJ.26.0840",Leishmania donovani extract,10 µM,reference: vehicle,relative abundance,1.13
CS(C)(=O)=Nc1ccc(-c2ccc(-c3nc4cc(O[C@@H]5CO[C@H]6[C@@H]5OC[C@H]6O)[nH]c4cc3F)cc2)cc1,"Serine/threonine-protein kinase mTOR, with FKBP12 (MTOR, Homo sapiens, UniProt P42345)",kinase activity,,10 µM,,inhibition,0%
C=Cc1c(C)c2cc3nc(c(CC(=O)[O-])c4[n-]c(cc5nc(cc1[n-]2)C(C)=C5CC)c(C)c4C(=O)[O-])C(CCC(=O)[O-])C3C.[Cu+2].[Na+].[Na+].[Na+] (stereo not drawn),,,"Wistar rat, female","oral, 250 mg/kg daily, 28 days",,serum alkaline phosphatase,164 ± 43.7 U/L
O=C1NC2(CC2)COc2ncc(F)cc2[C@H]2COCCN2c2ccn3ncc1c3n2,,,"Sprague-Dawley rat, female, serum","oral, 10 mg/kg/day, 4 weeks daily, end of recovery period",,creatinine,30.4 ± 2.3 µmol/L
CC(=O)N[C@H](C(=O)N[C@@H](CCCC(=O)OC(C)(C)C)C(=O)N[C@@H](CCC1CCCCC1)C(=O)N[C@@H](CC(=O)O)C(=O)COC(=O)c1c(C)cccc1C)C(C)(C)C,,,"C57BL/6N mouse, serum","concentration not given, with: LPS",,ALT,520 U/L and 468 U/L and 372 U/L and 426 U/L and 450 U/L and 446 U/L
CC(C)[C@@H]1NC(=O)CNC(=O)[C@H](CC(N)=O)NC(=O)[C@H](CCCNC(=N)N)NC(=O)[C@H](Cc2ccc(O)cc2)NC(=O)[C@H](C(C)C)NC(=O)[C@@H](NC(=O)[C@@H](NC(=O)[C@H](CC(N)=O)NC(=O)[C@H](Cc2c[nH]c3ccccc23)NC(=O)[C@H](C)NC(=O)[C@H](Cc2ccccc2)NC(=O)CNC(=O)[C@H](CCCCN)NC(=O)[C@H](Cc2ccccc2)NC(=O)[C@H](Cc2ccccc2)NC(=O)[C@H](CCCCN)NC(=O)OCC2c3ccccc3-c3ccccc32)C(C)C)CSSC[C@@H](C(=O)N[C@@H](Cc2c[nH]cn2)C(=O)N[C@@H](CCCNC(=N)N)C(=O)N[C@@H](CCCNC(=N)N)C(=O)N[C@@H](C)C(=O)N[C@@H](CC(N)=O)C(N)=O)NC(=O)[C@H](C(C)C)NC(=O)[C@H](CCCNC(=N)N)NC1=O,,,mouse mammary gland homogenate 50 mg/mL,"24.00 h, 37 °C",,peptide remaining,36% and 42.1% and 40.8%
CSCC[C@H](N)C(=O)N[C@@H](C)C(=O)N[C@@H](CCCNC(=N)N)C(=O)N[C@@H](CCCNC(=N)N)C(=O)N[C@@H](CC(=O)O)C(=O)N[C@@H](CCCCN)C(=O)N[C@H](C(=O)N[C@@H](CC(=O)O)C(=O)N[C@@H](Cc1ccccc1)C(=O)N[C@@H](C)C(=O)N[C@@H](CCCNC(=N)N)C(=O)N[C@@H](CCCNC(=N)N)C(=O)N[C@@H](CCCNC(=N)N)C(=O)N[C@@H](CCCNC(=N)N)C(=O)NCCCCCC(=O)NCCCCC(NC(=O)CCCCCNC(=O)[C@H](CCCNC(=N)N)NC(=O)[C@H](CCCNC(=N)N)NC(=O)[C@H](CCCNC(=N)N)NC(=O)[C@H](CCCNC(=N)N)NC(=O)[C@H](C)NC(=O)[C@H](Cc1ccccc1)NC(=O)[C@H](CC(=O)O)NC(=O)[C@@H](NC(=O)[C@H](CCCCN)NC(=O)[C@H](CC(=O)O)NC(=O)[C@H](CCCNC(=N)N)NC(=O)[C@H](CCCNC(=N)N)NC(=O)[C@H](C)NC(=O)[C@@H](N)CCSC)[C@@H](C)O)C(=O)NCCCCC(NC(=O)C(CCCCNC(=O)CCCCCNC(=O)[C@H](CCCNC(=N)N)NC(=O)[C@H](CCCNC(=N)N)NC(=O)[C@H](CCCNC(=N)N)NC(=O)[C@H](CCCNC(=N)N)NC(=O)[C@H](C)NC(=O)[C@H](Cc1ccccc1)NC(=O)[C@H](CC(=O)O)NC(=O)[C@@H](NC(=O)[C@H](CCCCN)NC(=O)[C@H](CC(=O)O)NC(=O)[C@H](CCCNC(=N)N)NC(=O)[C@H](CCCNC(=N)N)NC(=O)[C@H](C)NC(=O)[C@@H](N)CCSC)[C@@H](C)O)NC(=O)CCCCCNC(=O)[C@H](CCCNC(=N)N)NC(=O)[C@H](CCCNC(=N)N)NC(=O)[C@H](CCCNC(=N)N)NC(=O)[C@H](CCCNC(=N)N)NC(=O)[C@H](C)NC(=O)[C@H](Cc1ccccc1)NC(=O)[C@H](CC(=O)O)NC(=O)[C@@H](NC(=O)[C@H](CCCCN)NC(=O)[C@H](CC(=O)O)NC(=O)[C@H](CCCNC(=N)N)NC(=O)[C@H](CCCNC(=N)N)NC(=O)[C@H](C)NC(=O)[C@@H](N)CCSC)[C@@H](C)O)C(N)=O)[C@@H](C)O (stereo partly drawn),,,"C57BL/6 mouse female, skull","dose not given, 3 h",reference: total,mean tissue distribution,15.2%
COc1ccc([C@@H]2CC(=O)c3c(O)cc(O[C@@H]4O[C@H](CO)[C@@H](O)[C@H](O)[C@H]4O[C@@H]4O[C@@H](C)[C@H](O)[C@@H](O)[C@H]4O)cc3O2)cc1O,,,"Sprague-Dawley rat, male, lean, faeces","oral, 100 mg/kg, 12-24 h",,faecal excretion,2670 ± 1060 ng
C[C@H](O)[C@@H](NC(=O)[C@H]1CCCN1C(=O)[C@@H](CCCCN)NC(=O)[C@@H](CO)NC(=O)[C@@H](Cc1ccc(O)cc1)NC(=O)[C@@H](CC(N)=O)NC(=O)CCOCCOCCOCCNC(=O)CN1CCN(CC(=O)O)CCN(CC(=O)O)CCN(CC(=O)O)CC1)C(=O)N[C@H](CC(=O)O)C(=O)N[C@H](CCCNC(=N)N)C(=O)N[C@H](CCC(N)=O)C(=O)N[C@H](Cc1ccc(O)cc1)C(=O)N[C@H](Cc1c[nH]cn1)C(=O)N[C@H](Cc1ccccc1)C(N)=O [copper-64 labelled],,,"C57BL/6J mice, thymus","intravenous, 1.85 MBq, 1 h, radiolabelled",,tissue uptake,0.17 ± 0.01 %ID/g
CC[C@H](C)[C@H](NC(=O)[C@H](CCCCN)NC(=O)CNC(=O)[C@H](CC(C)C)NC(=O)[C@H](Cc1ccccc1)NC(=O)[C@H](CCCCN)NC(=O)[C@H](CO)NC(=O)[C@H](Cc1ccccc1)NC(=O)[C@H](Cc1c[nH]c2ccccc12)NC(=O)[C@H](CCC(N)=O)NC(=O)[C@@H](NC(=O)[C@H](Cc1ccccc1)NC(=O)CCCCCNC(=O)CN1CCN(CC(=O)O)CCN(CC(=O)O)CCN(CC(=O)O)CC1)C(C)C)C(=O)N[C@@H](CCC(=O)O)C(=O)N1CCC[C@H]1C(=O)N[C@@H](CC(=O)O)C(=O)N[C@H](C(=O)N[C@@H](CO)C(=O)N[C@@H](CCC(N)=O)C(=O)N[C@H](C(=O)N[C@@H](CCC(N)=O)C(=O)N[C@@H](CC(=O)O)C(=O)N1CCC[C@H]1C(=O)N[C@@H](CC(N)=O)C(=O)N[C@@H](CC(=O)O)C(=O)N[C@@H](CCC(N)=O)C(=O)N[C@@H](Cc1ccc(O)cc1)C(=O)N[C@@H](CCC(=O)O)C(=O)N1CCC[C@H]1C(=O)N[C@@H](Cc1ccccc1)C(=O)O)C(C)C)C(C)C [copper-64 labelled],,,"GZMB-/- mice, CT26 tumour-bearing, kidneys","2 h, vehicle-treated",,tissue uptake,30.5 ± 7.5 %ID/g
C/C(=N\OCCCN1CCCCC1)c1ccc(C(F)(F)F)cc1,,,"C57BL/6 mouse, plasma","oral, 10 mg/kg, 0.5 h",,plasma concentration,186 ± 6.56 ng/mL
CC[C@H](C)[C@H](NC(=O)[C@H](CO)NC(=O)[C@H](Cc1ccc(O)cc1)NC(=O)[C@H](Cc1ccc(O)cc1)NC(=O)[C@H](CC(N)=O)NC(=O)CNC(=O)[C@H](CO)NC(=O)[C@H](Cc1ccc(O)cc1)NC(=O)[C@H](CO)NC(=O)[C@H](CO)NC(=O)[C@H](CC(N)=O)NC(=O)COCCOCCNC(=O)CN1CCN(CC(=O)O)CCN(CC(=O)O)CCN(CC(=O)O)CC1)C(=O)N[C@@H](CC(C)C)C(N)=O [copper-64 labelled],,dynamic PET,"KPC mouse Ptf1a-CreER tdTomato, pancreas","intravenous, 4.6 MBq/mouse, 0.9 min, 84 d after tamoxifen",,tissue uptake,13.3 %ID/mL
CC(C)C[C@@H](NC(=O)[C@@H](CCCNC(=N)N)NC(=O)[C@@H](Cc1c[nH]cn1)NC(=O)[C@@H](Cc1c[nH]c2ccccc12)NC(=O)[C@@H](Cc1c[nH]cn1)NC(=O)[C@@H](Cc1ccccc1)NC(=O)[C@H](NC(=O)[C@@H](Cc1ccc(O)cc1)NC(=O)CNC(=O)CNC(=O)CCOCCOCCOCCNC(=O)CN1CCN(CC(=O)O)CCN(CC(=O)O)CC1)[C@H](C)O)C(=O)N[C@H](CC(N)=O)C(=O)N1CCC[C@@H]1C(=O)O [gallium-68 labelled],,,"human female, from C57BL/6 mouse, red marrow",,,absorbed dose,0.0103 ± 0.0001 mSv/MBq
CC(C)[C@H](NC(=O)[C@H](Cc1c[nH]c2ccccc12)NC(=O)[C@H](CCCNC(=N)N)NC(=O)[C@H](CCCNC(=N)N)NC(=O)[C@@H](NC(=O)[C@@H](NC(=O)[C@H](CCCNC(=N)N)NC(=O)[C@@H](NC(=O)[C@@H](NC(=O)[C@H](CCCNC(=N)N)NC(=O)[C@H](CCCNC(=N)N)NC(=O)[C@@H](NC(=O)[C@H](Cc1c[nH]c2ccccc12)NC(=O)[C@H](CCCNC(=N)N)NC(=O)[C@H](CCCNC(=N)N)NC(=O)[C@@H](NC(=O)[C@H](CCCNC(=N)N)NC(=O)[C@H](CCCNC(=N)N)NC(=O)[C@@H](NC(=O)[C@H](Cc1c[nH]c2ccccc12)NC(=O)[C@H](CCCNC(=N)N)NC(=O)[C@@H](N)CCCNC(=N)N)C(C)C)C(C)C)C(C)C)C(C)C)C(C)C)C(C)C)C(C)C)C(=O)N[C@@H](CCCNC(=N)N)C(=O)N[C@@H](CCCNC(=N)N)C(=O)O,,refers to: spleen,mice,"intravenous, 30 mg/kg",reference: body weight,organ weight,0.87%
COc1ccccc1-c1n[nH]c2nc(N[C@H]3CC[C@H](NS(=O)(=O)CC(C)C)CC3)ncc12,,"bead binding, competition bead pull-down, refers to: LINJ.26.2240",Leishmania donovani extract,10 µM,reference: vehicle,relative abundance,0.98
CN(C)[C@H]1C[C@@]23CC[C@@]4(O2)C(=CC[C@]2(C)[C@@H](c5ccc6ccncc6c5)CC[C@H]24)C=C3[C@@H](O)[C@@H]1O,"STK3 (Homo sapiens, UniProt Q13188)","ATP probe labelling, inhibitor, KiNativ profiling",,0.1 µM,,inhibition,1.8%

# A few entries again:
SMILES,tested on,assay,system,conditions,how to read,quantity,result
CS(C)(=O)=Nc1ccc(-c2ccc(-c3nc4cc(O[C@@H]5CO[C@H]6[C@@H]5OC[C@H]6O)[nH]c4cc3F)cc2)cc1,"Serine/threonine-protein kinase mTOR, with FKBP12 (MTOR, Homo sapiens, UniProt P42345)",kinase activity,,10 µM,,inhibition,0%
C=Cc1c(C)c2cc3nc(c(CC(=O)[O-])c4[n-]c(cc5nc(cc1[n-]2)C(C)=C5CC)c(C)c4C(=O)[O-])C(CCC(=O)[O-])C3C.[Cu+2].[Na+].[Na+].[Na+] (stereo not drawn),,,"Wistar rat, female","oral, 250 mg/kg daily, 28 days",,serum alkaline phosphatase,164 ± 43.7 U/L
